Assay results pooled from the literature.
Every numbered part comes from another study and shows a few of its results, in no order.
UniProt Q16584, sequence (whole entry, looked up): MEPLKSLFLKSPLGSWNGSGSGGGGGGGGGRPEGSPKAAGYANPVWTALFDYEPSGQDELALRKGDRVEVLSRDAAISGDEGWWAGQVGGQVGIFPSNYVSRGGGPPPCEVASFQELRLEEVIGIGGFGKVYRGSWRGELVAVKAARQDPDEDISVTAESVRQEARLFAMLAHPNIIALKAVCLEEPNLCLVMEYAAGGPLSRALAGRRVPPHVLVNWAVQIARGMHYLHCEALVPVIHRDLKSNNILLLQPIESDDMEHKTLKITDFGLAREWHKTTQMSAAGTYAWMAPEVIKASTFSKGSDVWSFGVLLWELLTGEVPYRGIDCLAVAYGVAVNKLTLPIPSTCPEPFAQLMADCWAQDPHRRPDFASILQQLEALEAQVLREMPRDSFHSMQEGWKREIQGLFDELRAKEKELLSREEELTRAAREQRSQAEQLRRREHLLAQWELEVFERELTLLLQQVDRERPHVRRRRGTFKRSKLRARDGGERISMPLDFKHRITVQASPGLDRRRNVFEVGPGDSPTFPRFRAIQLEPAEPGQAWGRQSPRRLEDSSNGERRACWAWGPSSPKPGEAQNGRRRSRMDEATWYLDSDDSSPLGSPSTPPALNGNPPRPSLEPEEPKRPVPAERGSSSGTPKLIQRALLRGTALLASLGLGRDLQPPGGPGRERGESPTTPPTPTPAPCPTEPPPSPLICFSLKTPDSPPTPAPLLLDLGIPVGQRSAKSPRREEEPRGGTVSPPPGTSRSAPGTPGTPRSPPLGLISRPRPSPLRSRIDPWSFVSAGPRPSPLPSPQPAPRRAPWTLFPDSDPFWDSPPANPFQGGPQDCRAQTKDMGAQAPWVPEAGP

Sample 1
Target: Ras GTPase-activating protein-binding protein 1, C-terminal RGG region (G3BP1, Homo sapiens, UniProt Q13283)
UniProt Q13283, sequence (whole entry, looked up): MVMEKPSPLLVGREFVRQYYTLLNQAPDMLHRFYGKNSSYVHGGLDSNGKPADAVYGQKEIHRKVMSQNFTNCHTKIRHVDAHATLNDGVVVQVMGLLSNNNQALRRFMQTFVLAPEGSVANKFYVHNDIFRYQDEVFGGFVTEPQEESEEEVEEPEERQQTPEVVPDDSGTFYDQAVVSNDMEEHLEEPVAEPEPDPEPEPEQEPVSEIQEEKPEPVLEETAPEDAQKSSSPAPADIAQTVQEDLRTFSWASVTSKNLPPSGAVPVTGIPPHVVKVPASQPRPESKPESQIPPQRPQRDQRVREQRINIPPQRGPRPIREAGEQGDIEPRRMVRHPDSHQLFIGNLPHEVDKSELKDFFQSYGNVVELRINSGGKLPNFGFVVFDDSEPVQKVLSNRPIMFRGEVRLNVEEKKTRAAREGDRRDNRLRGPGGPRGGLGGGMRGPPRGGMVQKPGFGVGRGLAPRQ
Method: RNA Bind-n-Seq
Molecule type: RNA
Matrix: in vitro
Concentration: 1 µM
Setting: whole 134-nt RNA, ends assumed
Added: 150 mM KCl
Baseline: input library
Reading: higher = stronger binding
`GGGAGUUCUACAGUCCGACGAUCCUCAAGUCCUGUGCUACACAUCGUAUGUACCGAAUCGGAAAGGAGGUUUUUGGAAAGUAUUAUGUUACGCCGUUCGGAUCUGCACUUCCAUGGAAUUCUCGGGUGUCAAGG` gave a log2 enrichment of -1.23.
The log2 enrichment of `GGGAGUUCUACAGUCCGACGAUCUGGGAGGUGGAUUUUGUUUAUUUUUUUAGCUCAUUUCCAGGGGUGGGAAUUUUUUUUUAAUAUAUGUCAUGAAUAAAGUUGUUUUUGAAAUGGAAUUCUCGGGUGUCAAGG` is reported as 2.94.
`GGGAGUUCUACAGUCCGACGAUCUCAAGUCCUGUGCUACACAUCGUAUGUACCGAAUCGGGUGGGAAAGGGAAAGGGAAAGUAUUAUGUUACGCCGUUCGGAUCUGCACUUCCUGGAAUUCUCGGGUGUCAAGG` gave a log2 enrichment of 1.49.
The log2 enrichment of `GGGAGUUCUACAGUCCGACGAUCUCAAGUCCUGUGCUACACAUCGUAUGUACCGAAUCGGAAAGGAAAGGUUUUUGGAAAGUAUUAUGUUACGCCGUUCGGAUCUGCACUUCCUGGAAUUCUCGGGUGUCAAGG` is reported as -1.38.
The log2 enrichment of `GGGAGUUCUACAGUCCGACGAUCUCCUGUGCUACACAUCGUAUGUACCGAAUCGGGGAAAGGGGAAAAAAAGGGGAAAGGGGAAAGUAUUAUGUUACGCCGUUCGGAUCUGCAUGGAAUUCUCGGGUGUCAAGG` is reported as 2.08.
With `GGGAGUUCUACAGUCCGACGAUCUGGGAGGUGGAUUUUGUUUAUUUUUUUAGCUCAUUUCCAGGGGUGGGAAUUUUUUUUUAAUAUGUGUCAUGAAUAAAGUUGUUUUAGAAAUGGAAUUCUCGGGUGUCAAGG` the log2 enrichment was 2.3.
`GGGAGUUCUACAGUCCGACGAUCCAAGUCCUGUGCUACACAUCGUAUGUACCGAAUCGGAAAGGUUUUUUUGGAAAGGAAAGUAUUAUGUUACGCCGUUCGGAUCUGCACUUCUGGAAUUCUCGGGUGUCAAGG` has a log2 enrichment of -2.22.
`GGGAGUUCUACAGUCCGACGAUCUGGGAGGUGGAUUUUGUUUAUUUUUUUAGCUCAUUUUCAGGGGUGGGAAUUUUUUUUUAAUAUGUGUCAUGAAUAAAGUUGUUUUUGAAAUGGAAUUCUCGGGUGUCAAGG` has a log2 enrichment of 3.91.

Sample 2
Target: Sal-like protein 4, full length isoform B (SALL4, Homo sapiens, UniProt Q9UJQ4-2, residues 1-616)
Method: universal PBM
Molecule type: double-stranded DNA, one strand shown
Matrix: in vitro
Concentration: not given
Setting: 8-mer, flanks averaged, mean of replicates
Reading: higher = stronger binding
Target sequence (chain): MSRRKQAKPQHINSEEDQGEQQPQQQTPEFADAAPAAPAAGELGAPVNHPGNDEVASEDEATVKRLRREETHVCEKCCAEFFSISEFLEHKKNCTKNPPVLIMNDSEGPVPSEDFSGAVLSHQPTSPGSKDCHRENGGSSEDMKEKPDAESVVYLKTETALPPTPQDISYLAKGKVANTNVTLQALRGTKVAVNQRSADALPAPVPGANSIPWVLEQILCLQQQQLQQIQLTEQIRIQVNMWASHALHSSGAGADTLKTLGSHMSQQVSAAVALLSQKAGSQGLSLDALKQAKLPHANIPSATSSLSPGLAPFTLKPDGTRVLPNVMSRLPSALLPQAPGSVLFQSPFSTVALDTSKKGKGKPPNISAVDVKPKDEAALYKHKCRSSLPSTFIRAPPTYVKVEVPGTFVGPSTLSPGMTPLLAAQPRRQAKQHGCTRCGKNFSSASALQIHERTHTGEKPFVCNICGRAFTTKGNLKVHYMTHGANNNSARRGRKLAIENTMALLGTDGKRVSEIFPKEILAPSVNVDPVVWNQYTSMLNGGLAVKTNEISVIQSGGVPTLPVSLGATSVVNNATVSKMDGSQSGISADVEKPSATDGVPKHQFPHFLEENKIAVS
For `CCAATCTC`, the E-score was 0.103.
With `AGCCACGC` the E-score was -0.147.
For `CAGCTATG`, the E-score was 0.137.
With `AAGCCCAG` the E-score was -0.195.
The E-score of `CTGAGATA` is reported as 0.113.
The E-score of `CTAAAAAC` is reported as -0.0589.
`ACAACTTG` has an E-score of 0.0327.
`TAACAGTA` has an E-score of 0.161.

Other studies, line by line
`CCCOc1ccc([C@@H]2[C@@H](C(=O)O)[C@H](c3ccc4c(c3)OCO4)CN2CC(=O)Nc2c(CC)cccc2CC)cc1` gave a remaining binding of 100% (Receptor-type tyrosine-protein kinase FLT3 (FLT3, Homo sapiens, UniProt P36888, R834Q); cell-free assay, competition with immobilised ligand; 1 µM).
`CCC[C@@H]1NC(=O)CSC[C@@H](C(=O)OCC)N(C)C(=O)[C@H](CC(C)C)NC(=O)[C@H](C)N(C)C(=O)[C@H](CC(C)C)NC(=O)[C@H](C)N(C)C(=O)[C@H]2CCCN2C(=O)[C@H](CC(C)C)NC(=O)CN(CCC)C1=O` gave a logD of 2.04 (hydrocarbon/water).
`COc1ccc2cc(OCC3(C(=O)O)CN(C(=O)c4ccc(F)cc4)C3)ccc2c1` gave a remaining binding of 79% (Mitogen-activated protein kinase kinase kinase 11 (MAP3K11, Homo sapiens, UniProt Q16584); cell-free assay, competition with immobilised ligand; 1 µM).
